# Experimental data from different studies.
# Each line is one published result; not all experiments were run side by side. “And” joins repeats or separate records; there may be more than shown. ± marks the error that the study gave.
# TRPM8: Transient receptor potential cation channel subfamily M member 8 (TRPM8, Homo sapiens, UniProt Q7Z2W7)
# FFAR4: Free fatty acid receptor 4 (FFAR4, Homo sapiens, UniProt Q5NUL3)
# NADH dehydrogenase [ubiquinone] iron-sulfur protein 7, mitochondrial/NADH dehydrogenase [ubiquinone] iron-sulfur protein 2, mitochondrial/MT-ND1: NADH dehydrogenase [ubiquinone] iron-sulfur protein 7, mitochondrial/NADH dehydrogenase [ubiquinone] iron-sulfur protein 2, mitochondrial/MT-ND1 (Homo sapiens, UniProt O75251+O75306+P03886)
# Kir3.1/Kir3.2: Kir3.1/Kir3.2 (Homo sapiens, UniProt P48051+P48549)
# PDE1C isoform PDE1C2: Dual specificity calcium/calmodulin-dependent 3',5'-cyclic nucleotide phosphodiesterase 1C, isoform PDE1C2 (PDE1C, Homo sapiens, UniProt Q14123)
SMILES,target,assay,test system,setting,scale,quantity,value
Nc1ncnc2c1cnn2-c1ccccc1,TRPM8,antagonist,HEK293,5 µM,baseline: control,remaining activity,94.1 ± 2.51%
CCCCCCCCN(C)c1cc(=O)[nH]c(=O)[nH]1,FFAR4,"antagonist, β-arrestin recruitment",CHO cells,10 µM,,inhibition,22 ± 2%
COc1cc(Nc2ncc3c(n2)-c2ccc(Cl)cc2C(c2c(F)cccc2OC)=NC3)ccc1C(=O)O,BMX,kinase activity,,1 µM,,remaining activity,25%
O=c1cc(-c2ccc(O)c(O)c2)oc2cc(O[C@@H]3O[C@H](CO)[C@@H](O)[C@H](O)[C@H]3O)cc(O)c12,"Heat shock protein HSP 90-alpha, N-terminal domain (HSP90AA1, Homo sapiens, UniProt P07900)","SPR, two-state model",N-terminal domain,,,kon,47100 ± 45800 M⁻¹ s⁻¹
COc1ccc(CN)cc1,"Maoa (Rattus norvegicus, UniProt P21396)",substrate,,"pH 7.5, 25 °C",,kcat of deuterated substrate,0.0133 ± 0.00167 s⁻¹
O=c1nc(SCc2cc(F)cc(C(F)(F)F)c2)nc(SCc2ccc3sccc3c2)[nH]1,"TOP2A (Homo sapiens, UniProt P11388)","DNA cleavage, competition with etoposide",,"31.25 µM, added: etoposide 50 µM",,linear DNA,24.4% and 21.2%
Nc1ncnc2c1nc(Br)n2[C@@H]1O[C@@H]2COP(=O)(O)O[C@H]2[C@H]1O,anti-cAMP antibody,"antibody binding, competitive cAMP EIA",,"concentration not given, acetylated samples","baseline: EC50 cAMP over EC50 cpd, higher = stronger binding",relative binding affinity,0.0043
CC1=C(/C=C/C(C)=C/C=C/C(C)=C/C=C/C=C(C)/C=C/C=C(C)/C=C/C2=C(C)CCCC2(C)C)C(C)(C)CCC1,"Beta-lactoglobulin (LGB, Bos taurus, UniProt P02754)",fluorescence quenching,,"concentration not given, 308 K",,number of binding sites,1.49
O=C(ON1C(=O)CCC1=O)c1cc(C(F)(F)F)cc(C(F)(F)F)c1,"CD209 antigen (CD209, Homo sapiens, UniProt Q9NNX6)","covalent labelling, intact protein MS",,200 µM,,kobs,0.283 min⁻¹
[O-][S+]1CCCCS1 (stereo not drawn),"SOD1 (Homo sapiens, UniProt P00441, G94A)",LC-MS,brain homogenate,"10 µM, 1 h, 37 °C",,SOD1 dimer fraction,1.88%
CC(C)(C)c1ccc(CCNc2cc(=O)[nH]c(=O)[nH]2)cc1,FFAR4,"agonist, β-arrestin recruitment",CHO cells,10 µM,,activation,-1 ± 1%
Nc1nc2ccccc2[nH]1,"HVCN1 (Homo sapiens, UniProt Q96D96, F150A)","proton current, inhibitor, inside-out patch clamp",,,,Hill coefficient,1.08 ± 0.04
O=C(NCc1ccc(CNS(=O)(=O)c2ccccc2)cc1)c1ccncc1,"CXCR4 (Homo sapiens, UniProt P61073)","binding, inhibitor, competitive binding",MDA-MB-231,added: biotinylated TN14003,,EC,10 nM
Nc1ncnc2c1ncn2[C@@H]1O[C@H](CO[P@](=O)(O)O[P@](=O)(O)O[P@@](=O)(O)S)[C@@H](O)[C@H]1O,"GUK1 (Homo sapiens, UniProt Q16774)",ITC,,molar ratio 2.17,,ΔH,-0.409 kcal/mol
O=C(O)C1CCCCN1 (stereo not drawn),"uncharacterized protein (Pelagibacter ubique, UniProt Q4FKZ8)",differential scanning fluorimetry,Candidatus Pelagibacter ubique,in-house screen,,thermal shift,11.5 °C
CCNc1cc(=O)[nH]c(=O)[nH]1,FFAR4,"antagonist, β-arrestin recruitment",CHO cells,"10 µM, added: 4 µM TUG-891",,inhibition,13 ± 2%
COCCOCc1ccc(-c2cc3onc(-c4ccccc4)c3c(=O)n2C)cc1,"Nuclear receptor subfamily 4 group A member 2, LBD (Homo sapiens, UniProt P43354)","reporter gene, Gal4 hybrid reporter",,1 µM,baseline: vehicle,activation,1.31 ± 0.02 fold
CC[C@@H]1[C@H](F)C(=O)N[C@@H]1COc1nccc2cc(C(N)=O)c(OC)cc12,"MAP3K21 (Homo sapiens, UniProt Q5TCX8)","ATP-site probe binding, ActivX profiling, refers to: MLK4",THP-1 cell lysate,"0.2 mM, Lys2 site",,inhibition,4.6%
NC(=O)NOCCCCCCCCCCCCCCCC[P+](c1ccccc1)(c1ccccc1)c1ccccc1.O=C([O-])C(F)(F)F,"NADH dehydrogenase [ubiquinone] iron-sulfur protein 7, mitochondrial/NADH dehydrogenase [ubiquinone] iron-sulfur protein 2, mitochondrial/MT-ND1","complex I-dependent respiration, Seahorse XF96",HCT-116,"0.3 µM, 24 h",baseline: control,oxygen consumption rate,81.1 ± 8.84%
Cc1cc(NC(=O)C2CCc3cc(F)ccc3O2)n(C2CCS(=O)(=O)C2)n1 (stereo not drawn),Kir3.1/Kir3.2,"thallium flux, activator",HEK293,,baseline: standard compound,Emax,43%
CC[C@H](C)[C@@H]1NC(=O)[C@H](C)NC(=O)[C@H]([C@@H](C)CC)NC(=O)[C@H](CCC(N)=O)NC(=O)[C@H](C)NC(=O)[C@H](CCCNC(=N)N)NC(=O)[C@H](C(C)C)NC(=O)[C@H](CC(C)C)NC(=O)[C@H](CCC(=O)O)NC(=O)[C@H](CCCNC(=N)N)NC(=O)CNC(=O)[C@@H](NC(=O)[C@H](CC(C)C)NC(=O)[C@H](CCCCN)NC(=O)[C@@H](NC(=O)[C@@H](NC(=O)[C@H](CCC(=O)O)NC(=O)[C@H](CCC(=O)O)NC(=O)[C@H](CCSC)NC(=O)[C@H](Cc2c[nH]c3ccccc23)NC(=O)[C@H](CO)NC(=O)[C@@H](N)CC(=O)O)C(C)C)[C@@H](C)CC)CSSC[C@@H]2NC(=O)[C@@H](NC(=O)[C@H](CCCCN)NC(=O)[C@H](CC(N)=O)NC(=O)[C@H](C)NC(=O)[C@H](CC(C)C)NC(=O)[C@H](C)NC(=O)[C@H](CO)NC(=O)[C@H](Cc3ccc(O)cc3)NC(=O)[C@H](CC(C)C)NC(=O)[C@H](CCC(N)=O)NC(=O)c3ccc(-c4c5ccc(=[N+](C)C)cc-5oc5cc(N(C)C)ccc45)c(C(=O)[O-])c3)CSSC[C@H](NC(=O)CNC(=O)[C@H](C(C)C)NC(=O)[C@H](Cc3c[nH]cn3)NC2=O)C(=O)N[C@@H]([C@@H](C)O)C(=O)N[C@@H](CCCCN)C(=O)N[C@@H](CCCNC(=N)N)C(=O)N[C@@H](CO)C(=O)N[C@@H](CC(C)C)C(=O)N[C@@H](C)C(=O)N[C@@H](CCCNC(=N)N)C(=O)N[C@@H](Cc2ccccc2)C(=O)N[C@H](C(=O)O)CSSC[C@@H](C(=O)NCC(=O)N[C@@H](CCSC)C(=O)N[C@@H](CO)C(=O)N[C@H](C(=O)N[C@@H](Cc2c[nH]c3ccccc23)C(=O)N[C@@H](CO)C(=O)O)[C@@H](C)O)NC1=O,"Relaxin receptor 1 (RXFP1, Homo sapiens, UniProt Q9HBX9, F76A/Y80A)",NanoBRET,,"concentration not given, added: relaxin 10 µM",,fast dissociation fraction,56%
O=C1O/C(=C\c2cc(F)ccc2OCCN2CC[C@@H](F)C2)c2cc(Cc3cccc(F)c3)[nH]c(=O)c21,PDE1C isoform PDE1C2,"enzyme activity, inhibitor",,added: 3H-cGMP substrate,,ligand efficiency,0.32
Nc1ncnc2c1ncn2[C@@H]1O[C@H](COP(=O)(O)CP(=O)(O)OP(=O)(O)O)[C@@H](O)[C@H]1O,"P2X purinoceptor 1 (P2RX1, Homo sapiens, UniProt P51575, E122A)",calcium influx,,10 nM,baseline: ionomycin response,calcium influx,0.521%
Cc1ccc2oc(-c3cc(NC(=O)Cc4ccccc4)ccc3Cl)nc2c1,"Glideosome-associated protein 50 (GAP50, Plasmodium falciparum, UniProt Q8I2X3)","binding, surface plasmon resonance",,1:1 binding model,,koff,3.67 s⁻¹
CCCn1nc(C(=O)N2CCCCC2)c2c1CCC(N1CCC(c3ccncc3)CC1)C2 (stereo not drawn),"TMEM97 (Homo sapiens, UniProt Q5BJF2)",[3H]DTG displacement,,,"baseline: sigma 1, sigma 2 over",selectivity ratio,> 625 fold
O=C1O/C(=C\c2cc(F)ccc2OCCCN2CCOCC2)c2cc(Cc3cccc(F)c3)[nH]c(=O)c21,PDE1C isoform PDE1C2,"enzyme activity, inhibitor",,added: 3H-cGMP substrate,,ligand efficiency,0.3
O=Nc1c(NCCCc2ccccc2)[nH]c(=O)[nH]c1=O,FFAR4,"agonist, β-arrestin recruitment",CHO cells,10 µM,,activation,1 ± 1%
O=C(COc1ccc(C2CCC(=O)NC2=O)cc1)NCCCCCCN1CCc2c(c3ccccc3n2Cc2ccc(C(=O)NO)cc2)C1 (stereo not drawn),"HDAC10 (Homo sapiens, UniProt Q969S8)","degrader, western blot",MM1.S,"1 µM, 24 h",,degradation,84%
Nc1[nH]nc2nnc(-c3c(-c4ccccc4)nn4ccccc34)cc12,TRPM8,antagonist,HEK293,5 µM,baseline: control,remaining activity,73.7 ± 9.09%
COc1ccccc1Nc1cccc2nccnc12,"3-oxoacyl-[acyl-carrier-protein] reductase FabG (fabG, Pseudomonas aeruginosa, UniProt O54438)","enzyme activity, inhibitor, NADPH fluorescence",,"reverse reaction, added: 3-OH-decanoyl-NAC, NADP",,Hill slope,1.3
N#Cc1ccsc1NC(=O)COc1ccc(Cl)cc1Cl,Kir3.1/Kir3.2,"thallium flux, activator",HEK293,,baseline: standard compound,Emax,< 10%
Nc1ncnc2c1ncn2[C@@H]1O[C@H](COP(=O)(O)OP(=O)(O)OP(=O)(O)O)[C@@H](O)[C@H]1O,"P2X purinoceptor 7 (P2rx7, Rattus norvegicus, UniProt Q64663, I214A/R125A)","ion current, agonist, two-electrode voltage clamp",Xenopus laevis oocytes,3.3 µM,baseline: highest concentration response,normalized current,0
NC(=O)NO,"NADH dehydrogenase [ubiquinone] iron-sulfur protein 7, mitochondrial/NADH dehydrogenase [ubiquinone] iron-sulfur protein 2, mitochondrial/MT-ND1","complex I-dependent respiration, Seahorse XF96",HCT-116,"200 µM, 24 h",baseline: control,oxygen consumption rate,86.5 ± 2.07%

# Some of these lines once more:
SMILES,target,assay,test system,setting,scale,quantity,value
CC[C@H](C)[C@@H]1NC(=O)[C@H](C)NC(=O)[C@H]([C@@H](C)CC)NC(=O)[C@H](CCC(N)=O)NC(=O)[C@H](C)NC(=O)[C@H](CCCNC(=N)N)NC(=O)[C@H](C(C)C)NC(=O)[C@H](CC(C)C)NC(=O)[C@H](CCC(=O)O)NC(=O)[C@H](CCCNC(=N)N)NC(=O)CNC(=O)[C@@H](NC(=O)[C@H](CC(C)C)NC(=O)[C@H](CCCCN)NC(=O)[C@@H](NC(=O)[C@@H](NC(=O)[C@H](CCC(=O)O)NC(=O)[C@H](CCC(=O)O)NC(=O)[C@H](CCSC)NC(=O)[C@H](Cc2c[nH]c3ccccc23)NC(=O)[C@H](CO)NC(=O)[C@@H](N)CC(=O)O)C(C)C)[C@@H](C)CC)CSSC[C@@H]2NC(=O)[C@@H](NC(=O)[C@H](CCCCN)NC(=O)[C@H](CC(N)=O)NC(=O)[C@H](C)NC(=O)[C@H](CC(C)C)NC(=O)[C@H](C)NC(=O)[C@H](CO)NC(=O)[C@H](Cc3ccc(O)cc3)NC(=O)[C@H](CC(C)C)NC(=O)[C@H](CCC(N)=O)NC(=O)c3ccc(-c4c5ccc(=[N+](C)C)cc-5oc5cc(N(C)C)ccc45)c(C(=O)[O-])c3)CSSC[C@H](NC(=O)CNC(=O)[C@H](C(C)C)NC(=O)[C@H](Cc3c[nH]cn3)NC2=O)C(=O)N[C@@H]([C@@H](C)O)C(=O)N[C@@H](CCCCN)C(=O)N[C@@H](CCCNC(=N)N)C(=O)N[C@@H](CO)C(=O)N[C@@H](CC(C)C)C(=O)N[C@@H](C)C(=O)N[C@@H](CCCNC(=N)N)C(=O)N[C@@H](Cc2ccccc2)C(=O)N[C@H](C(=O)O)CSSC[C@@H](C(=O)NCC(=O)N[C@@H](CCSC)C(=O)N[C@@H](CO)C(=O)N[C@H](C(=O)N[C@@H](Cc2c[nH]c3ccccc23)C(=O)N[C@@H](CO)C(=O)O)[C@@H](C)O)NC1=O,"Relaxin receptor 1 (RXFP1, Homo sapiens, UniProt Q9HBX9, F76A/Y80A)",NanoBRET,,"concentration not given, added: relaxin 10 µM",,fast dissociation fraction,56%
COc1ccccc1Nc1cccc2nccnc12,"3-oxoacyl-[acyl-carrier-protein] reductase FabG (fabG, Pseudomonas aeruginosa, UniProt O54438)","enzyme activity, inhibitor, NADPH fluorescence",,"reverse reaction, added: 3-OH-decanoyl-NAC, NADP",,Hill slope,1.3
COc1cc(Nc2ncc3c(n2)-c2ccc(Cl)cc2C(c2c(F)cccc2OC)=NC3)ccc1C(=O)O,BMX,kinase activity,,1 µM,,remaining activity,25%
COc1ccc(CN)cc1,"Maoa (Rattus norvegicus, UniProt P21396)",substrate,,"pH 7.5, 25 °C",,kcat of deuterated substrate,0.0133 ± 0.00167 s⁻¹
O=C1O/C(=C\c2cc(F)ccc2OCCCN2CCOCC2)c2cc(Cc3cccc(F)c3)[nH]c(=O)c21,PDE1C isoform PDE1C2,"enzyme activity, inhibitor",,added: 3H-cGMP substrate,,ligand efficiency,0.3
